# Published values gathered from unrelated publications.
# Each line is one published result; not all experiments were run side by side. Several values in a cell are separate wells, animals, samples, runs or records.
# CDK6: Cyclin-dependent kinase 6 (CDK6, Homo sapiens, UniProt Q00534)
# CDK6 with cyclin D3: Cyclin-dependent kinase 6, with cyclin D3 (CDK6, Homo sapiens, UniProt Q00534)
# CDK6 with cyclin D1: Cyclin-dependent kinase 6, with cyclin D1 (CDK6, Homo sapiens, UniProt Q00534)
Compound,target,test,test system,setting,scale,quantity,value
Cc1nn(C)c(C)c1/C=C/C(=O)N1CCC[C@H](Cc2ccc(Nc3ccccn3)nn2)C1,CDK6,"enzyme activity, inhibitor, ADP detection",,1 µM,,activity vs control,12%
Nc1ncc(-c2cc(-c3cnn(CC(F)(F)F)c3)ncc2F)nc1C(=O)NC1CNCC(F)C1 (centres unmarked),CDK6 with cyclin D3,enzyme activity,,1 µM,baseline: DMSO control,remaining activity,57.5%
C=CC(=O)N1Cc2nc(-c3cc(-c4cc(Cl)cnc4Cl)c(F)cc3F)n(-c3ccncn3)c2C1,CDK6 with cyclin D1,"cell-free assay, inhibitor",,1 µM,,inhibition,9.9%
Cc1nc2c(F)cc(-c3nc(Nc4ccc(CNC(=O)CCCCCCC(=O)NO)cc4)ncc3F)cc2n1C(C)C,CDK6 with cyclin D3,"enzyme activity, inhibitor",,1 µM,,inhibition,97%
NC(=O)C[C@H]1CCc2sc3ncnc(O[C@H]4CC[C@H](N5CCOCC5)CC4)c3c21,CDK6 with cyclin D1,"enzyme activity, inhibitor",,10 µM,,inhibition,3%
CN1C[C@@H](c2c[nH]c3cc(Br)ccc23)NC[C@@H]1c1c[nH]c2cc(Br)ccc12,CDK6 with cyclin D3,"enzyme activity, inhibitor",,10 µM,,remaining activity,102%
COc1ccc(NC(=O)Nc2ccc3c(c2)C(=O)N(C(C)CO)CC(C)C(CN(C)Cc2ccc4c(c2)OCO4)O3)cc1 (centres unmarked),CDK6 with cyclin D3,"kinase activity, KinaseProfiler",,"0.03 µM, species human",baseline: control,remaining activity,94%
O=C(O)CCC(=O)c1cccc(NS(=O)(=O)c2c[nH]c3ncccc23)c1,CDK6 with cyclin D3,"kinase activity, radiometric",,10 µM,,remaining activity,93%
CCn1cc(C(=O)O)c(=O)c2c(N)c(F)c(NC3CCCCC3)cc21,"Cyclin-dependent kinase 6, with cyclin D2 (CDK6, Homo sapiens, UniProt Q00534)",kinase activity,,"0.1 µM, added: ATP at Km",,inhibition,8.7%
CCc1nnc(Nc2cnc([C@@H]3CCCN(C(=O)CCc4cccnc4)C3)cn2)s1,CDK6,"enzyme activity, inhibitor, ADP detection",,1 µM,,activity vs control,35%
Cc1cccc(O[C@H]2CCC[C@@H](C(C)CNCc3ccncc3)C2)c1 (relative stereo),CDK6 with cyclin D3,"enzyme activity, inhibitor",,1 µM,,inhibition,4%
C=CC(=O)Nc1cccc(-c2cnc3[nH]cc(C(=O)NC(C)(C)C)c3n2)c1,CDK6 with cyclin D3,kinase activity,,0.1 µM,,inhibition,13% and 16%
NC(=O)[C@@H](O)C[C@H]1CCc2sc3ncnc(O[C@H]4CC[C@H](N5CCOCC5)CC4)c3c21,CDK6 with cyclin D3,"enzyme activity, inhibitor",,10 µM,,inhibition,5%
CS(=O)(=O)Nc1cccc(-c2csc3cnc(Nc4ccc(N5CCN(CCCCCOc6cccc7c6C(=O)N(C6CCC(=O)NC6=O)C7=O)CC5)cc4)nc23)c1 (centres unmarked),CDK6,"probe labelling, inhibitor, KiNativ chemoproteomics",MOLT-4,1 µM,,inhibition,91.2%

# For quick reference, copied from above:
Compound,target,test,test system,setting,scale,quantity,value
NC(=O)[C@@H](O)C[C@H]1CCc2sc3ncnc(O[C@H]4CC[C@H](N5CCOCC5)CC4)c3c21,CDK6 with cyclin D3,"enzyme activity, inhibitor",,10 µM,,inhibition,5%
COc1ccc(NC(=O)Nc2ccc3c(c2)C(=O)N(C(C)CO)CC(C)C(CN(C)Cc2ccc4c(c2)OCO4)O3)cc1 (centres unmarked),CDK6 with cyclin D3,"kinase activity, KinaseProfiler",,"0.03 µM, species human",baseline: control,remaining activity,94%
